Results from different studies.
Each numbered part is a random draw from the data of one study; scales do not carry over between parts. Several values in a cell are separate wells, animals, samples, runs or records.
Chain of UniProt P29376 (whole entry, looked up): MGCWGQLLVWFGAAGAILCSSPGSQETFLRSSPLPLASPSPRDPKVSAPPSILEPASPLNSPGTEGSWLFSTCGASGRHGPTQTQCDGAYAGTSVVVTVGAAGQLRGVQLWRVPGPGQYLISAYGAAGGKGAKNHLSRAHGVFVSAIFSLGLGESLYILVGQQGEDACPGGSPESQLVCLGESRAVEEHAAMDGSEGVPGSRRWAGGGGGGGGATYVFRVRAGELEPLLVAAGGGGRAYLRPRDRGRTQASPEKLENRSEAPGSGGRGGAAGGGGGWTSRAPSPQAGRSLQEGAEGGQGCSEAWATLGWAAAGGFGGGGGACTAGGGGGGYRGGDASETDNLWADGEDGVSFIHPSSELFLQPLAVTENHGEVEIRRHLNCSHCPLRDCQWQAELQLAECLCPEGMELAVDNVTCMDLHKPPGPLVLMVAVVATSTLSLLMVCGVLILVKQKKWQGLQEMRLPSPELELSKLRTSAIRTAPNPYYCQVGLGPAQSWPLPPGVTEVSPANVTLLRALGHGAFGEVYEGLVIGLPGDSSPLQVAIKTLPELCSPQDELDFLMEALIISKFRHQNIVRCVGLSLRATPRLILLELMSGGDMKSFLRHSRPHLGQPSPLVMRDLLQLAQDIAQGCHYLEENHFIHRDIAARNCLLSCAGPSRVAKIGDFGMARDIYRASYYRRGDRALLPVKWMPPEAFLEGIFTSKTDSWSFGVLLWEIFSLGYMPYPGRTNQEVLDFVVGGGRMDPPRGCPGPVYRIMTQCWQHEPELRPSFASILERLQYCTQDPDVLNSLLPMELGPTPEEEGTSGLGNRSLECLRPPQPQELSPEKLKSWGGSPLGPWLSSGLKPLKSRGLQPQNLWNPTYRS

Set 1
Structure (SMILES): C[C@@H]1CN(c2ccc(-c3cc(C(=O)NCCOCCOCCOCCOCCNC(=O)/C=C/c4[nH]cc(C(=O)N[C@@H](CC(N)=O)c5ccc(F)c(Cl)c5)c4-c4ccc(Cl)cc4F)ccc3F)cc2NC(=O)c2c[nH]c(=O)cc2C(F)(F)F)C[C@H](C)N1C
Method: ATPlite
cell line	test system	conditions	scale	viability
MV4-11 expressing HiBiT-WDR5	RPMI with 10% FBS	88.1 nM, 24 h	–	106% and 96.2% and 111%
MV4-11 expressing HiBiT-WDR5	RPMI with 10% FBS	3800 nM, 24 h	–	102% and 90.1% and 80.3%
MV4-11 expressing HiBiT-WDR5	RPMI with 10% FBS	2 nM, 24 h	–	110% and 118% and 101%
MV4-11	–	1 µM, 5 days	relative to: DMSO	86.2% and 84.7% and 76.2% and 66.1%
MV4-11	–	0.464 µM, 5 days	relative to: DMSO	89.5% and 72.4% and 102%
MV4-11	–	0.01 µM, 5 days	relative to: DMSO	92.4% and 75.9% and 74.2% and 99.8%
MV4-11	–	4.64 µM, 5 days	relative to: DMSO	30.3% and 46.2% and 60.5% and 39.3%
MV4-11 expressing HiBiT-WDR5	RPMI with 10% FBS	13.3 nM, 24 h	–	86.4% and 106% and 91%

Set 2
Structure (SMILES): CC(C)C[C@@H]1NC(=O)[C@@H](N(C)C(=O)[C@H](CC2CCC2)NC(=O)[C@@H]2C[C@@H](F)CN2C(=O)C2(C(F)(F)F)CC(F)(F)C2)CCCCNC(=O)C2(CC2)NC(=O)[C@H](Cc2cc(Cl)ccc2Cl)N(C)C1=O
Cell line: human CD34+ HSPC
Method: EdU flow cytometry
Time: 24 h
conditions	G0-G1 phase cells
3000 nM	50.8% and 45.7%
300 nM	49.8% and 50%
1000 nM	46.5% and 46.7%

Set 3
Compound: CC(C)(C(=O)O)[C@H](NC(=O)Cc1cccc(I)c1)c1ccc2oc(=O)[nH]c2c1
Method: Incucyte 3D growth
Tested at: 30 µM
Direction: higher = more growth
cell line	conditions	spheroid area
A375	168 h	9.91e+07 a.u. and 9.99e+07 a.u. and 1.05e+08 a.u. and 8.71e+07 a.u. and 1.01e+08 a.u. and 1.2e+08 a.u.
MEL-JUSO	384.52 h	7.13e+07 a.u. and 4.08e+07 a.u. and 3.2e+07 a.u. and 3.96e+07 a.u. and 4.33e+07 a.u. and 3.95e+07 a.u.
KP-4	288 h	1.05e+08 a.u. and 9.24e+07 a.u. and 5.1e+07 a.u. and 7.44e+07 a.u. and 2.93e+07 a.u. and 7.34e+07 a.u.
MEL-JUSO	84.52 h	1.42e+07 a.u. and 1.36e+07 a.u. and 1.34e+07 a.u. and 1.5e+07 a.u. and 1.27e+07 a.u. and 1.24e+07 a.u.
MEL-JUSO	498.52 h	2.46e+07 a.u. and 7.54e+07 a.u. and 5.52e+07 a.u. and 1.89e+07 a.u. and 2.43e+07 a.u. and 3.18e+07 a.u.
A375	0.52 h	7.37e+06 a.u. and 7.27e+06 a.u. and 9.02e+06 a.u. and 7.22e+06 a.u. and 6.13e+06 a.u. and 9.64e+06 a.u.
A375	348.52 h	1.94e+08 a.u. and 1.71e+08 a.u. and 1.68e+08 a.u. and 1.63e+08 a.u. and 1.85e+08 a.u. and 1.72e+08 a.u.
NCI-H1437	60 h	2.13e+07 a.u. and 2.38e+07 a.u. and 2.66e+07 a.u. and 2.59e+07 a.u. and 3.05e+07 a.u.

Single results of other studies
SMILES	tested on	assay	conditions	scale	endpoint	result
CC[C@@H](C)c1nc2cc(Nc3ccnc4ccc(S(=O)(=O)C(C)C)cc34)ccc2s1.Cl	L929	caspase activity, Ac-DEVD-pNA absorbance	50 µM, 2 h	higher = more activity	caspase-3 activity	0.03 a.u. and 0.032 a.u. and 0.017 a.u. and 0.019 a.u.
N#Cc1c(NC(=O)c2cccc3ccccc23)sc2c1CCCC2	Leukocyte tyrosine kinase receptor (LTK, Homo sapiens, UniProt P29376)	enzyme activity, inhibitor, radiometric	0.5 µM	–	remaining activity	102%

Some of these lines once more (set 2):
conditions	G0-G1 phase cells
1000 nM	46.5% and 46.7%
3000 nM	50.8% and 45.7%
300 nM	49.8% and 50%
